Measurements of several laboratories.
Each numbered part is a random draw from the data of one study; scales do not carry over between parts. “And” joins repeats or separate records; there may be more than shown.
Chain of UniProt P07948 (whole entry, looked up): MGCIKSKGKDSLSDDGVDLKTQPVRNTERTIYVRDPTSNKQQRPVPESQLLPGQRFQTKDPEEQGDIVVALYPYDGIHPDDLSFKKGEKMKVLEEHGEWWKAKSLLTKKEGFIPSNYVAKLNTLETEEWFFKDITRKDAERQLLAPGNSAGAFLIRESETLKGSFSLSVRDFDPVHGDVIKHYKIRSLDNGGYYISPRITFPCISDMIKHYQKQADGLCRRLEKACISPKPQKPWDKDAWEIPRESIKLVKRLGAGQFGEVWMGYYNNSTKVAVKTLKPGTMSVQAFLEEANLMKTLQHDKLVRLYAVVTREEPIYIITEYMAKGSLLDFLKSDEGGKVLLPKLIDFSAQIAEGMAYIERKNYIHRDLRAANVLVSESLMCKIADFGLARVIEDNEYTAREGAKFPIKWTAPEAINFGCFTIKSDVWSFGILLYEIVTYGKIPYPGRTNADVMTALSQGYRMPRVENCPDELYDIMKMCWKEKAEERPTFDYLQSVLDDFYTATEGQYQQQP
Chain of UniProt Q96RR4 (whole entry, looked up): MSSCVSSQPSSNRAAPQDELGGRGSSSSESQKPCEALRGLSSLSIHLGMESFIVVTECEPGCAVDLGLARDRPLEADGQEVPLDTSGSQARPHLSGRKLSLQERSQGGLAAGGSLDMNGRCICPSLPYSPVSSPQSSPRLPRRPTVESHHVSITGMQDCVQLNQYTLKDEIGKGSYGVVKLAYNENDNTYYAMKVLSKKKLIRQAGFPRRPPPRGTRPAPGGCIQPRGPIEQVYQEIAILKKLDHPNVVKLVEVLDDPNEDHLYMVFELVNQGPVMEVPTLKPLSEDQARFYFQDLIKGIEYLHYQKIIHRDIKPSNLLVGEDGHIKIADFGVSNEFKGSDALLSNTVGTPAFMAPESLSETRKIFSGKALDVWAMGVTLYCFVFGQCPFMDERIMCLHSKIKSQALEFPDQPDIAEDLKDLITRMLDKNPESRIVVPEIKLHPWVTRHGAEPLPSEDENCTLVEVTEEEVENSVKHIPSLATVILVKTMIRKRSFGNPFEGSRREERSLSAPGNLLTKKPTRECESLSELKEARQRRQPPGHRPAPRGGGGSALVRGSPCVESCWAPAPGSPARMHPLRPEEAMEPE
Chain of UniProt P35626 (whole entry, looked up): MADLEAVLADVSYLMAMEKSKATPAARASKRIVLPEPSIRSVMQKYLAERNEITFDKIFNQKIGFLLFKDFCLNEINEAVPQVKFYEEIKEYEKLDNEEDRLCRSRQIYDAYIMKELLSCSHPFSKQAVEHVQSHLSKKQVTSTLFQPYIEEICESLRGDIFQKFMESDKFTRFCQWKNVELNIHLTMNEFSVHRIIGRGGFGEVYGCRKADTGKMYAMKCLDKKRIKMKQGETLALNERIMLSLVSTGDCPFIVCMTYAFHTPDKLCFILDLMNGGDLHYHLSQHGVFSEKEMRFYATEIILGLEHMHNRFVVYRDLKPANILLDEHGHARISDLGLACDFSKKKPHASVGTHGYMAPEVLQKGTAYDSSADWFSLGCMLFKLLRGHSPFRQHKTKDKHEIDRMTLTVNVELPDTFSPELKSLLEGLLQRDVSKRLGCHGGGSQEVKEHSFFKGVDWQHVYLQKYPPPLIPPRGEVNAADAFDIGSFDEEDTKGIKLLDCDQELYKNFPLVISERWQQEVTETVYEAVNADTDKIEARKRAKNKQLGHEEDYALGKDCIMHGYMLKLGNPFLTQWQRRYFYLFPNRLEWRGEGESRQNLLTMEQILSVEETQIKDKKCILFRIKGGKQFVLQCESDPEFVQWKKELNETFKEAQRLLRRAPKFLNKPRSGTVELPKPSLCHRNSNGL
Chain of UniProt P51955 (whole entry, looked up): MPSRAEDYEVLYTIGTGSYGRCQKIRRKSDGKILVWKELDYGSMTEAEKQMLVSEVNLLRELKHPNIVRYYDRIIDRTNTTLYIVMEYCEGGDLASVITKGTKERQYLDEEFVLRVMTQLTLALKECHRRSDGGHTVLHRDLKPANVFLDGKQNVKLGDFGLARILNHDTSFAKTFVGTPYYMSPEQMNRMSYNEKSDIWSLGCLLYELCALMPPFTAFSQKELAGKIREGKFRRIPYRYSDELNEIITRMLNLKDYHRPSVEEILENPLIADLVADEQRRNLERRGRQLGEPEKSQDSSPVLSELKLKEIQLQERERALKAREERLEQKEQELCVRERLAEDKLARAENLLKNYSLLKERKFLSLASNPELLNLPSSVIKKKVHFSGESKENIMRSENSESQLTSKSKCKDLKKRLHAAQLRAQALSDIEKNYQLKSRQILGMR
Chain of UniProt Q9UIK4 (whole entry, looked up): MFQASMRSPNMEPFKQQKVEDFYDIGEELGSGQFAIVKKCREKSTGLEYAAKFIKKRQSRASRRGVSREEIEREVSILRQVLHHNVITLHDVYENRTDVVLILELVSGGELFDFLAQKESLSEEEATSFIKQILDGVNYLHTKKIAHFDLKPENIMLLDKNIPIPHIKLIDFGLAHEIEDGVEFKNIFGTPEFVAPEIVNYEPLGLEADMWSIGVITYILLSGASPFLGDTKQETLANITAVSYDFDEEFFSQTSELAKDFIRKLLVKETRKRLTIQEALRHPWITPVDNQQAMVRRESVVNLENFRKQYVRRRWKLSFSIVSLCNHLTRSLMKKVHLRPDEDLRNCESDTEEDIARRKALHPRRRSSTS
Chain of UniProt O14920 (whole entry, looked up): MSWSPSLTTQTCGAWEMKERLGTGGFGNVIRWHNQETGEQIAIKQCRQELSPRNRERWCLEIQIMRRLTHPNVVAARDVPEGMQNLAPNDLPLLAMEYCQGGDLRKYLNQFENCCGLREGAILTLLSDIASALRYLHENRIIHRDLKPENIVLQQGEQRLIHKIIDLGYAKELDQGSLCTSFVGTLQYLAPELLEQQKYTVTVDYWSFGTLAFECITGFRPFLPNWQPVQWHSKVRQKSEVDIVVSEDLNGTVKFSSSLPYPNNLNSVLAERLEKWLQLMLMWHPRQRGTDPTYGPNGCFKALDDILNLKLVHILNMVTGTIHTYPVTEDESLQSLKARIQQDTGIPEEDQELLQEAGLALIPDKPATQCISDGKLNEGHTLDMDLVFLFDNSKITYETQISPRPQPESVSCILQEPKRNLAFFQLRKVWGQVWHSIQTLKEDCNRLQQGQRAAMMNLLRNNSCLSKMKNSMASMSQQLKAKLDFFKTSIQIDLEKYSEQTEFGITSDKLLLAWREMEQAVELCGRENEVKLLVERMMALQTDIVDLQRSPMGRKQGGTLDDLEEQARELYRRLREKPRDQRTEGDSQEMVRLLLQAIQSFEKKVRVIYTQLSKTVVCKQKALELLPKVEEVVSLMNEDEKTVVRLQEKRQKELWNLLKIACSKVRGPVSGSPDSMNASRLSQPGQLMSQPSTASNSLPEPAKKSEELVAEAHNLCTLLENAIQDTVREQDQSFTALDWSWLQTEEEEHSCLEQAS
Chain of UniProt P37173 (whole entry, looked up): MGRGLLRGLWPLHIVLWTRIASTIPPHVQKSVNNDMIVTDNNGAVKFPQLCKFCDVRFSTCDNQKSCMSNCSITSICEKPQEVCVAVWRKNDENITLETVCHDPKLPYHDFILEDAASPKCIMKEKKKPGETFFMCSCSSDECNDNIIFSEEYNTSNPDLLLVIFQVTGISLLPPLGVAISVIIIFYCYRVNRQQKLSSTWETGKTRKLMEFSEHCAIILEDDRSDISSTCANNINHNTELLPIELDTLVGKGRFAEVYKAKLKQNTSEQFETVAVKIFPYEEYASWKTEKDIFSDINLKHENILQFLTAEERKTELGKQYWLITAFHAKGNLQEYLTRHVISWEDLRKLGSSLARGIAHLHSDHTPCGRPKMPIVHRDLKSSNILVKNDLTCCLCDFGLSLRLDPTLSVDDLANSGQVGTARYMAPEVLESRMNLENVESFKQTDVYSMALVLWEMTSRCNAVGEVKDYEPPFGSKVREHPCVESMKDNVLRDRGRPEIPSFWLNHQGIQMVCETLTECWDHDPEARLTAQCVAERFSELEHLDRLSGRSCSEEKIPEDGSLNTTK
Chain of UniProt Q13557 (whole entry, looked up): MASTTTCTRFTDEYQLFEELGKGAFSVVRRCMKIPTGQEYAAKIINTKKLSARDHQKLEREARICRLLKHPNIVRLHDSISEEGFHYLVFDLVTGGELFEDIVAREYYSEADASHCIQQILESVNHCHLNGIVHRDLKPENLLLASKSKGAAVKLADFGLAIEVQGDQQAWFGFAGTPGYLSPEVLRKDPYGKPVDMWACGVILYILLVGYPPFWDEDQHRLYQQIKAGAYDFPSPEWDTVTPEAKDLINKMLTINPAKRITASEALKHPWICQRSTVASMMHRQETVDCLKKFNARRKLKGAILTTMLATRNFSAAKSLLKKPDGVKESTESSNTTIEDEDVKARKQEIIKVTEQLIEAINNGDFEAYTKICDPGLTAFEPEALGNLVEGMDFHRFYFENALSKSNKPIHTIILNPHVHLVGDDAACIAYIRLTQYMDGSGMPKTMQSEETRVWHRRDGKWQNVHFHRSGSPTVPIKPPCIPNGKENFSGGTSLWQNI
Chain of UniProt P45984 (whole entry, looked up): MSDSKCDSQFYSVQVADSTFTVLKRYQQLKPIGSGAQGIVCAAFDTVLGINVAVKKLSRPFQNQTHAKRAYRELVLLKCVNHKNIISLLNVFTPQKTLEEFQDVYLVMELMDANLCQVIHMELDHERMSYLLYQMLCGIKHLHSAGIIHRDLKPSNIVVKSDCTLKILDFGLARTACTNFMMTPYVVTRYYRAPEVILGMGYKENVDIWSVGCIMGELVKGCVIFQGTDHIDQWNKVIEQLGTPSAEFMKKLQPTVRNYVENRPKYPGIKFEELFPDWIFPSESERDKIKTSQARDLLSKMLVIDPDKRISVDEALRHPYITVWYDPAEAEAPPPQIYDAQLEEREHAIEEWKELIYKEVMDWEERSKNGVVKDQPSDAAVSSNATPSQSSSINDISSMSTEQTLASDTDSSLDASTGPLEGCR

Block 1
Organism: Sarcocystis neurona
Read-out: parasite growth
Tested at: 10 µM
Time: 96 h
Notes: secondary screen
SMILES	inhibition
CN(CCOc1ccc(NS(C)(=O)=O)cc1)CCc1ccc(NS(C)(=O)=O)cc1	-18.6%
O=C(O)CCNC(=O)c1ccc(/N=N/c2ccc(O)c(C(=O)O)c2)cc1	-18.3%
Nc1ncnc2c1ncn2[C@@H]1O[C@H](CO)[C@@H](O)[C@@H]1O	-20.2%
CN(C)CCCN1c2ccccc2CCc2ccccc21	-17.7%
CN(C)CC[C@@H](c1ccc(Cl)cc1)c1ccccn1	-18.6%
CO[C@H]1/C=C/O[C@@]2(C)Oc3c(C)c(O)c4c(O)c(c(/C=N/N5CCN(C6CCCC6)CC5)c(O)c4c3C2=O)NC(=O)/C(C)=C\C=C\[C@H](C)[C@H](O)[C@@H](C)[C@@H](O)[C@@H](C)[C@H](OC(C)=O)[C@@H]1C	-22%
NS(=O)(=O)c1cc2c(cc1Cl)N=CNS2(=O)=O	-12%
CCOC(=O)N1CCC(=C2c3ccc(Cl)cc3CCc3cccnc32)CC1	-32.5%
COc1cc(C(=O)NS(=O)(=O)c2ccccc2C)ccc1Cc1cn(C)c2ccc(NC(=O)OC3CCCC3)cc12	-37.7%
CC1(C)O[C@@H]2[C@@H](CO[C@@]3(COS(N)(=O)=O)OC(C)(C)O[C@@H]23)O1	-22.2%

Block 2
Host: human
Sample: microsomes or S9
Tested at: 2 µM
Time: 0.5 h
SMILES	remaining compound [%]
CCc1nn2c(c1-c1ccc(C)c(S(=O)(=O)N(C)c3ccc(C)c(C)c3)c1)NC(=O)CCC2=O	49.3
CCn1nc(C)c(CNc2nc(N)nc3nc[nH]c23)n1	> 100
Cc1ccccc1-c1noc(-c2ccc[nH]c2=O)n1	88.4
Fc1cnc(NC2CCN(C3CCOC3)CC2)nc1 (stereo not drawn)	98.4
CC1(C)CC(O)CC(C)(C)N1CC(O)COc1cccc2ccccc12 (stereo not drawn)	0.0346
O=C1CC2CS(=O)(=O)CC2N1C1CCCCC1 (stereo not drawn)	93.8
Cc1nn2c(=O)c(CCC(=O)NC(C)(C)c3noc(C(C)(C)C)n3)c(C)nc2[nH]1	85.3
CCCc1nc(C(=O)N2C[C@@H](CN3C[C@@H](C)O[C@@H](C)C3)[C@@H](CO)C2)cs1	69.6

Block 3
SMILES: Nc1nc(Nc2ccc(S(N)(=O)=O)cc2)nn1C(=S)Nc1c(F)cccc1F
Read-out: enzyme activity
Mode: inhibitor
Tested at: 0.5 µM
Baseline: control
target	remaining activity [%]
G protein-coupled receptor kinase 3 (GRK3, Homo sapiens, UniProt P35626)	88
Mitogen-activated protein kinase 9 (MAPK9, Homo sapiens, UniProt P45984)	80.9
Cyclin-dependent kinase 5, with p25 (CDK5, Homo sapiens, UniProt Q00535)	0.156
Serine/threonine-protein kinase OSR1 (OXSR1, Homo sapiens, UniProt O95747)	67.6
TGF-beta receptor type-2 (TGFBR2, Homo sapiens, UniProt P37173)	89.3
cGMP-dependent protein kinase 1, isoform beta (PRKG1, Homo sapiens, UniProt Q13976)	85.1
Cyclin-dependent kinase 4, with cyclin D1 (CDK4, Homo sapiens, UniProt P11802)	87.7
Tyrosine-protein kinase Lyn, isoform B (LYN, Homo sapiens, UniProt P07948)	56.1
Serine/threonine-protein kinase Chk2 (CHEK2, Homo sapiens, UniProt O96017)	1.96
Serine/threonine-protein kinase 10 (STK10, Homo sapiens, UniProt O94804)	3.96
Death-associated protein kinase 1 (DAPK1, Homo sapiens, UniProt P53355)	81.3
Death-associated protein kinase 2 (DAPK2, Homo sapiens, UniProt Q9UIK4)	83
Calcium/calmodulin-dependent protein kinase kinase 2 (CAMKK2, Homo sapiens, UniProt Q96RR4)	5.4
Inhibitor of nuclear factor kappa-B kinase subunit beta (IKBKB, Homo sapiens, UniProt O14920)	49.3
Protein kinase C beta type, isoform beta-I (PRKCB, Homo sapiens, UniProt P05771)	75.2
TGF-beta receptor type-1 (TGFBR1, Homo sapiens, UniProt P36897)	81.8
Serine/threonine-protein kinase Nek2 (NEK2, Homo sapiens, UniProt P51955)	98.3
STE20/SPS1-related proline-alanine-rich protein kinase (STK39, Homo sapiens, UniProt Q9UEW8)	76.5
Inhibitor of nuclear factor kappa-B kinase subunit epsilon (IKBKE, Homo sapiens, UniProt Q14164)	67.2
cAMP-dependent protein kinase catalytic subunit alpha (PRKACA, Homo sapiens, UniProt P17612)	78.2
Calcium/calmodulin-dependent protein kinase type II subunit delta (CAMK2D, Homo sapiens, UniProt Q13557)	15.6

Block 4
Structure (SMILES): CC(C)(C(=O)O)[C@H](NC(=O)Cc1cccc(I)c1)c1ccc2oc(=O)[nH]c2c1
Method: Incucyte 3D growth
Tested at: 30 µM
Direction: higher = more growth
cell line	time	spheroid area
MEL-JUSO	414.52 h	3.22e+07 a.u. and 4.49e+07 a.u. and 2.57e+07 a.u. and 3.15e+07 a.u. and 4e+07 a.u. and 7.45e+07 a.u.
A375	504.52 h	1.39e+08 a.u. and 1.42e+08 a.u. and 1.55e+08 a.u. and 1.76e+08 a.u. and 1.51e+08 a.u. and 1.45e+08 a.u.
MEL-JUSO	480.52 h	2.32e+07 a.u. and 7.28e+07 a.u. and 1.71e+07 a.u. and 5.19e+07 a.u. and 2.79e+07 a.u. and 2.92e+07 a.u.
PC-9	162 h	1.27e+09 a.u. and 1.33e+09 a.u. and 1.23e+09 a.u. and 1.3e+09 a.u. and 1.32e+09 a.u. and 1.34e+09 a.u.
KP-4	30 h	1.13e+07 a.u. and 1.17e+07 a.u. and 1.65e+07 a.u. and 1.26e+07 a.u. and 1.42e+07 a.u. and 1.2e+07 a.u.

Further values, each from its own experiment
Compound	target	read-out	tested at	endpoint	value
CC(=O)N1CCC(c2ccc(C(=O)NC3=NCCN3)cc2C(F)(F)F)CC1	5-hydroxytryptamine receptor 5A (HTR5A, Homo sapiens, UniProt P47898)	ligand displacement	10 µM	inhibition	-11.5%

Repeated from above (block 1):
SMILES	inhibition
CN(C)CC[C@@H](c1ccc(Cl)cc1)c1ccccn1	-18.6%
CO[C@H]1/C=C/O[C@@]2(C)Oc3c(C)c(O)c4c(O)c(c(/C=N/N5CCN(C6CCCC6)CC5)c(O)c4c3C2=O)NC(=O)/C(C)=C\C=C\[C@H](C)[C@H](O)[C@@H](C)[C@@H](O)[C@@H](C)[C@H](OC(C)=O)[C@@H]1C	-22%
CN(C)CCCN1c2ccccc2CCc2ccccc21	-17.7%
COc1cc(C(=O)NS(=O)(=O)c2ccccc2C)ccc1Cc1cn(C)c2ccc(NC(=O)OC3CCCC3)cc12	-37.7%
Nc1ncnc2c1ncn2[C@@H]1O[C@H](CO)[C@@H](O)[C@@H]1O	-20.2%
O=C(O)CCNC(=O)c1ccc(/N=N/c2ccc(O)c(C(=O)O)c2)cc1	-18.3%
